Measured values pooled from the literature.
Each numbered part is a random draw from the data of one study; scales do not carry over between parts.

Block 1 — method: RNA Bind-n-Seq; form: RNA; matrix: in vitro; tested at: 365 nM; reference: no-protein control; direction: higher = stronger binding; endpoint: RBNS enrichment (R)
Target: RNA binding protein fox-1 homolog 2, RRM domain, GST-SBP tag (RBFOX2, Homo sapiens, UniProt O43251-10, residues 100-194)
Setting: natural RNA segment, single round, ends assumed
Construct (chain): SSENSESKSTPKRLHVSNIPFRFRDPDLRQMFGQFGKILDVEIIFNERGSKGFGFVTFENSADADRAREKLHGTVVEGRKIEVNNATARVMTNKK
GGGAGUUCUACAGUCCGACGAUCCUCUCCAGGCAAGAGGCCAUUCAGUCUGUACAUUGUCGGGACCGGAGAGGUGGGACUGCCAUCUGGGCCUCGGUGGCUUGUUUCCAACCAAAUUAUCUGGGCUUCAGAAGUGGAAUUCUCGGGUGCCAA: 0.221
GGGAGUUCUACAGUCCGACGAUCCUUGACGCAGUGUGUUUUAGGUGUUUGUCUUUGUACUUUUUUGUGAUUUUUGAAUGCACGUGCGCAGGAAGGGCUCCUCUUAGAGAAGCAGUCAAACUGUGAAGCACUAAUGGAAUUCUCGGGUGCCAA: 8.09
GGGAGUUCUACAGUCCGACGAUCAGAUGUCCAGGCGGAUUUGGAGGGUGCAGCCCUGUCUGUGCCUGGGGCUUUAACCCUGUACAACGUCACCGAGAGCAACGCCUCCUACUUGGAUCCUGGAGCCAGUCCCUUGGAAUUCUCGGGUGCCAA: 0.348

Block 2 — method: universal PBM; form: double-stranded DNA, one strand shown; matrix: in vitro; tested at: not given; direction: higher = stronger binding; endpoint: E-score
Target: Sal-like protein 4, full length isoform B (SALL4, Homo sapiens, UniProt Q9UJQ4-2, residues 1-616)
Setting: 8-mer, flanks averaged, mean of replicates
Target sequence (chain): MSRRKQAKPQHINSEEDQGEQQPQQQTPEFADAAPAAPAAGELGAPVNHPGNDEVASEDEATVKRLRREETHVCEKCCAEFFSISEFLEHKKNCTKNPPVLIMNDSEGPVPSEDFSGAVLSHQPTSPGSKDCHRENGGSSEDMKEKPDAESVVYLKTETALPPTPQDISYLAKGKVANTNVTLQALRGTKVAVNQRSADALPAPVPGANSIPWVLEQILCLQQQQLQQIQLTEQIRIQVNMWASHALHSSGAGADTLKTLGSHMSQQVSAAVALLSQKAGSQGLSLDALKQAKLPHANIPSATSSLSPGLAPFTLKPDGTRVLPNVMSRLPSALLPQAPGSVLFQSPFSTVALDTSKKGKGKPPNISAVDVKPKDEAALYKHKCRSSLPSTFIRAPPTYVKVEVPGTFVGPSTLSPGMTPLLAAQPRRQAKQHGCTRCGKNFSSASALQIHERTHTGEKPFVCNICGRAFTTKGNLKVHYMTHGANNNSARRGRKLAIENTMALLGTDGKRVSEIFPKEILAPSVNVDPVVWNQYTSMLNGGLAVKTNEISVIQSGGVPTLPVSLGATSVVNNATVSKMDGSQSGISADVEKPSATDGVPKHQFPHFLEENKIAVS
AGCGACCG: -0.347
AGGACACA: 0.148
AAGCCATG: -0.0825
TCTGGCCA: -0.0153
CCATCGAG: -0.0933

Block 3 — method: aptamer microarray, sandwich; form: DNA with 2'F-ANA; matrix: in vitro; tested at: 200 nM; with: Cy3 exosite-II aptamer, 400 nM; direction: higher = stronger binding; endpoint: mean fluorescence intensity
Target: Prothrombin, mature alpha-thrombin (F2, Homo sapiens, UniProt P00734)
Setting: whole 15-mer aptamer, many near background
GGTTGGTGTGGTTGG (2'F-ANA at 1 4 6 7 11 12 14 15): 54.4 a.u.
GGTTGGTGTGGTTGG (2'F-ANA at 1 3 7 8 12 13 14): 163 a.u.
GGTTGGTGTGGTTGG (2'F-ANA at 1 2 3 4 6 12): 301 a.u.
GGTTGGTGTGGTTGG (2'F-ANA at 1 3 4 5 10 14): 44.9 a.u.

Single results of other studies
PhoQ, residues 284 288 289 292 302 303 HSYLQF  fold induction (PhoP, residues 12 14 15 18 19 LYFRQ (Escherichia coli, UniProt P23836); Sort-seq, refers to: YFP reporter; E. coli; PhoQ-PhoP variant library, with: 10 µM Mg2+; reference: high Mg2+ state, higher = stronger signaling): 54.5

For quick reference, copied from above (block 3):
GGTTGGTGTGGTTGG (2'F-ANA at 1 2 3 4 6 12): 301 a.u.
GGTTGGTGTGGTTGG (2'F-ANA at 1 3 4 5 10 14): 44.9 a.u.
